Results collected from several papers.
“And” joins repeats or separate records; there may be more than shown. ± marks the error that the study gave. Converted amounts (≈) assume the structure as drawn.

| Compound | target or system | assay | system | conditions | how to read | quantity | result |
| --- | --- | --- | --- | --- | --- | --- | --- |
| CC(C)NCCc1c[nH]c2cccc(O)c12.O=C(O)/C=C/C(=O)O | – | – | C57BL/6J mice | subcutaneous, 3 mg/kg | – | head twitch count | 14.4 ± 1.7 |
| C=CCN1CC[C@]23c4c5ccc(O)c4O[C@H]2C(=O)CC[C@@]3(O)[C@H]1C5 | – | tail-flick test | male ICR-CD1 mice | subcutaneous, 5 mg/kg, 30 min | – | % MPE | 10.6% and -9.86% and -10.1% and 11.3% and -36.4% and 5.34% |
| CCCCCCCCCCCC[N+](C)(C)CCCNCCC[N+](C)(C)CCCCCCCCCCCC.[Br-].[Br-] | influenza A virus A/PR/8/34 (H1N1) | – | – | concentration not given, pre-treatment | – | protection | 62.8 ± 16.3% |
| CC[C@H](C)[C@H](NC(=O)[C@H](C)NC(=O)[C@H](CCCCN)NC(=O)[C@H](CC(C)C)NC(=O)[C@H](C)NC(=O)[C@@H](NC(=O)[C@H](Cc1c[nH]cn1)NC(=O)[C@H](CC(C)C)NC(=O)[C@@H](NC(=O)[C@@H](NC(=O)[C@H](CCCCN)NC(=O)[C@H](C)NC(=O)[C@H](C)NC(=O)[C@H](CO)NC(=O)[C@H](CCCCN)NC(=O)[C@H](Cc1ccccc1)NC(=O)[C@@H](NC(=O)[C@H](CCCCN)NC(=O)[C@H](CC(C)C)NC(=O)[C@H](Cc1ccccc1)NC(=O)[C@H](CO)NC(=O)[C@H](CCCCN)NC(=O)[C@H](Cc1c[nH]c2ccccc12)NC(=O)[C@H](CCCCN)NC(C)=O)[C@@H](C)O)[C@@H](C)O)C(C)C)[C@@H](C)O)C(=O)N[C@@H](CO)C(=O)N[C@@H](CO)C(N)=O | Pseudomonas aeruginosa | – | ATCC 27853 | – | – | MBC50 | 8 mg/L (≈ 2.73 µM) |
| COc1cc(CCC[P+](c2ccccc2)(c2ccccc2)c2ccccc2)c(OC)c2c1OCO2.[I-] | UO-31 | SRB | – | – | – | LC50 | > -4 log M |
| CC[C@H](C)[C@@H]1NC(=O)[C@H](CO)NC(=O)[C@@H]2CCCN2C(=O)[C@@H](NC(=O)CN)CSSC[C@@H]2NC(=O)CNC(=O)[C@H](C)NC(=O)[C@H](CC(C)C)NC(=O)[C@@H]3CSSC[C@@H](C(=O)NCC(=O)O)NC(=O)[C@H](Cc4ccccc4)NC(=O)CNC(=O)[C@H](CC(N)=O)NC(=O)[C@@H]4CCCN4C(=O)CNC(=O)[C@H](CSSC[C@H](NC(=O)[C@H](CCCNC(=N)N)NC(=O)[C@H](CCC(N)=O)NC(=O)[C@H](CCCNC(=N)N)NC(=O)[C@H](CCCCN)NC(=O)[C@H](C(C)C)NC(=O)[C@H](CO)NC(=O)[C@H](CC(N)=O)NC1=O)C(=O)N[C@@H](CCCCN)C(=O)N[C@@H](CCC(N)=O)C(=O)N[C@@H](CC(=O)O)C(=O)N[C@@H](CO)C(=O)N[C@@H](CC(=O)O)C(=O)N3)NC(=O)[C@H](C(C)C)NC2=O | HEK293, Wnt1-transfected | Wnt signalling | – | – | – | IC50 | > 100 µM |
| CCCCC1(CCCC)CN(c2ccccc2)c2cc(SC)c(OCC(=O)N[C@@H](C(=O)NCC(=O)O)c3ccccc3)cc2S(=O)(=O)C1 | – | item: HDL cholesterol | human, serum | 15 mg once daily, day 2 | – | serum HDL-C | 45.7 mg/dL |
| CCCCCCCCCCCCCCCC[N+](C)(C)CCCCCCCCCCCC[N+](C)(C)CCCCCCCCCCCCCCCC.[Br-].[Br-] | influenza A virus A/PR/8/34 (H1N1) | – | – | concentration not given, post-treatment | – | HA titre reduction | 1.5 ± 0.5 log units |
| Cc1cn(-c2cc(NC(=O)c3ccc(C)c(Nc4nccc(-c5cccnc5)n4)c3)cc(C(F)(F)F)c2)cn1 | – | – | Homo sapiens | 300 mg, 12 months | direction not given | NPI score | 6.3 ± 6.4 |
| O=C(O)/C=C/C(=O)O.Oc1cccc2[nH]cc(CCNC3CCCCC3)c12 | – | – | C57BL/6J mice | subcutaneous, 0.1 mg/kg | – | head twitch count | 6.3 ± 0.9 |
| CN1CCN(S(=O)(=O)c2cc([N+](=O)[O-])ccc2N(CCOS(C)(=O)=O)CCOS(C)(=O)=O)CC1 | – | – | NSG mice, T-ALL PDX sample E | intraperitoneal, 25 mg/kg, single mouse trial | – | event-free survival | > 272 days |
| C[C@]12CCC(=O)C(O)=C1CC[C@@H]1[C@@H]2CC[C@]2(C)C(=O)CC[C@@H]12 | human iPSC-derived cardiomyocytes | MyBP-C/MYH ratio, plate-normalised SD score | – | concentration not given, primary screen | direction not given | activity score | 4 |
| CCC(CC)O[C@@H]1C=C(C(=O)O)C[C@H](N)[C@H]1NC(C)=O | influenza A virus A/PR/8/34 (H1N1) | – | – | concentration not given, post-treatment | – | protection | 71.7 ± 2.6% |
| CCNCCc1c[nH]c2cccc(O)c12.CCNCCc1c[nH]c2cccc(O)c12.O=C(O)CCC(=O)O | – | – | C57BL/6J mice | subcutaneous, 10 mg/kg | – | head twitch response | 31.2 ± 4.5 count/30 min |
| CCCCCCCCCCCCCCCCCC[N+](C)(C)Cc1ccc(C[N+](C)(C)CCCCCCCCCCCCCCCCCC)cc1.[Br-].[Br-] | influenza A virus A/PR/8/34 (H1N1) | – | – | concentration not given, post-treatment | – | HA titre reduction | 2 log units |
| CCCNCCc1c[nH]c2cccc(O)c12.CCCNCCc1c[nH]c2cccc(O)c12.O=C(O)/C=C/C(=O)O | – | – | C57BL/6J mice | subcutaneous, 0.3 mg/kg | – | head twitch count | 9.5 ± 0.8 |

| Compound | target or system | assay | system | conditions | how to read | quantity | result |
| --- | --- | --- | --- | --- | --- | --- | --- |
| COc1c(C)c2c(c(O)c1C/C=C(\C)CCC(=O)O)C(=O)OC2 | ASPC1 | cell proliferation | pancreas cancer | – | – | IC50 | 2.24 µM |
| CCOP(=S)(OCC)Oc1ccc(Cl)cc1Cl | nanobody A4 | ic-ELISA | – | concentration not given | relative to: coumaphos IC50 over compound IC50, molar basis | cross-reactivity | < 1% |
| CN1CCN(C2(CNC3CCN(c4cccc(-c5cc6cc(F)ccc6[nH]5)c4)CC3)CCC2)CC1 | UO-31 | – | – | – | – | GI50 | 1.71 µM |
| CC[C@H](C)[C@@H]1NC(=O)[C@@H]2CCCN2C(=O)[C@H](CC(C)C)NC(=O)[C@H](CC(C)C)NC(=O)CNC(=O)[C@@H](NC(=O)[C@@H](NC(=O)[C@H](CC(=O)O)NC(=O)CNC(=O)[C@@H](NC(=O)[C@H](C)NC(=O)CNC(=O)[C@H](CCCCN)NC(=O)[C@H](CC(C)C)NC(=O)[C@H](CC(C)C)NC(=O)[C@H](CCCCN)NC(=O)CNC(=O)[C@@H](NC(=O)[C@@H](N)CC(C)C)C(C)C)C(C)C)C(C)C)CSSC[C@@H](C(=O)O)NC1=O | – | RNA-seq, item: Marcksl1 | mouse, traumatic brain injury model, frontal cortex and hippocampus | dose not given | relative to: TBI alone | log2 fold change | -1.4 |
| CCCCNCCc1c[nH]c2cccc(O)c12.O=C(O)/C=C/C(=O)O | – | – | C57BL/6J mice | subcutaneous, 10 mg/kg, 30 min | – | distance travelled | 2400 ± 293 cm |
| C[C@H]1O[C@@H](O[C@H]2CC[C@@]3(C)[C@@H](CC[C@]4(C)[C@@H]3C=C[C@]35OC[C@@]6(CCC(C)(C)C[C@H]63)[C@@H](O)C[C@]54C)[C@]2(C)CO)[C@H](O)[C@@H](O[C@@H]2O[C@H](CO)[C@@H](O)[C@H](O)[C@H]2O)[C@H]1O | – | histology | hepatic SIRT1 knockdown mice, liver | dose not given, high dose, together with: chronic-plus-binge ethanol | – | Oil Red O area | 0.249% and 0.261% and 0.255% |
| CC(C)C[C@@H](NC(=O)CNC(=O)[C@@H](CCCCN)NC(=O)[C@@H](CC(C)C)NC(=O)[C@@H](CCCCN)NC(=O)[C@@H](CCCNC(=N)N)NC(=O)[C@@H](CC(C)C)NC(=O)[C@@H](CC(C)C)NC(=O)[C@@H](CCCNC(=N)N)NC(=O)[C@H](N)CCCNC(=N)N)C(=O)N[C@H](CCCCN)C(=O)N[C@H](CCCCN)C(=O)N[C@H](Cc1ccc(O)cc1)C(=O)N[C@H](CC(C)C)C(=O)N[C@H](Cc1ccc(O)cc1)C(=O)N[C@H](Cc1ccccc1)C(=O)N[C@H](CCCCN)C(=O)N[C@H](CC(C)C)C(=O)N[C@H](CCC(N)=O)C(=O)N[C@H](CC(C)C)C(=O)N[C@H](CC(C)C)C(=O)N[C@H](CCCCN)C(=O)N[C@H](CCCCN)C(N)=O | Escherichia coli O111:B4 LPS | – | – | 4 µM, pH 7.4, together with: LPS 25 µg/mL | – | BODIPY-TR-cadaverine displacement | 70.5% |
| C=CCNCCc1c[nH]c2cccc(O)c12.C=CCNCCc1c[nH]c2cccc(O)c12.O=C(O)/C=C/C(=O)O | – | – | C57BL/6J mice | subcutaneous, 0.1 mg/kg | – | head twitch count | 14.5 ± 3 |
| CCCCCCCCCCCC[N+](C)(C)CCOCC[N+](C)(C)CCCCCCCCCCCC.[Br-].[Br-] | influenza A virus A/PR/8/34 (H1N1) | – | – | concentration not given, pre-treatment | – | protection | 83 ± 8.5% |
| COc1c(CCC[P+](c2ccccc2)(c2ccccc2)c2ccccc2)cc2c(c1OC)OCO2.[I-] | NCI-H522 | SRB | – | – | – | LC50 | > -4 log M |
| CC(C)N1CCC(NC2CCN(c3cccc(-c4cc5cc(F)ccc5[nH]4)c3)CC2)CC1 | LOX IMVI | – | – | – | – | GI50 | 1.36 µM |
| O=C(O)/C=C/C(=O)O.Oc1cccc2[nH]cc(CCNCc3ccccc3)c12 | – | – | C57BL/6J mice | subcutaneous, 30 mg/kg | – | head twitch count | 20.2 ± 2.3 |
| C/C=C1\CN2CC[C@H]1C[C@H]2[C@H](O)c1ccnc2ccc(O)cc12 | West Nile virus | viral replication, Rluc reporter replicon | Vero WNV replicon cells | 50 µM, 24 h | – | inhibition | 33.7 ± 2.9% |
| CC(C)(C)NCCc1c[nH]c2cccc(O)c12.CC(C)(C)NCCc1c[nH]c2cccc(O)c12.O=C(O)/C=C/C(=O)O | – | – | C57BL/6J mice | subcutaneous, 30 mg/kg | – | head twitch count | 7.3 ± 1.2 |
| [Ca+2] | Halyomorpha halys | inward current, inhibitor, electrophysiology | – | 1 mM, C-terminal deletion | – | inhibition | 7.62% |

Some of these lines once more:
| Compound | target or system | assay | system | conditions | how to read | quantity | result |
| --- | --- | --- | --- | --- | --- | --- | --- |
| CC[C@H](C)[C@H](NC(=O)[C@H](C)NC(=O)[C@H](CCCCN)NC(=O)[C@H](CC(C)C)NC(=O)[C@H](C)NC(=O)[C@@H](NC(=O)[C@H](Cc1c[nH]cn1)NC(=O)[C@H](CC(C)C)NC(=O)[C@@H](NC(=O)[C@@H](NC(=O)[C@H](CCCCN)NC(=O)[C@H](C)NC(=O)[C@H](C)NC(=O)[C@H](CO)NC(=O)[C@H](CCCCN)NC(=O)[C@H](Cc1ccccc1)NC(=O)[C@@H](NC(=O)[C@H](CCCCN)NC(=O)[C@H](CC(C)C)NC(=O)[C@H](Cc1ccccc1)NC(=O)[C@H](CO)NC(=O)[C@H](CCCCN)NC(=O)[C@H](Cc1c[nH]c2ccccc12)NC(=O)[C@H](CCCCN)NC(C)=O)[C@@H](C)O)[C@@H](C)O)C(C)C)[C@@H](C)O)C(=O)N[C@@H](CO)C(=O)N[C@@H](CO)C(N)=O | Pseudomonas aeruginosa | – | ATCC 27853 | – | – | MBC50 | 8 mg/L (≈ 2.73 µM) |
| COc1cc(CCC[P+](c2ccccc2)(c2ccccc2)c2ccccc2)c(OC)c2c1OCO2.[I-] | UO-31 | SRB | – | – | – | LC50 | > -4 log M |
| CC[C@H](C)[C@@H]1NC(=O)[C@H](CO)NC(=O)[C@@H]2CCCN2C(=O)[C@@H](NC(=O)CN)CSSC[C@@H]2NC(=O)CNC(=O)[C@H](C)NC(=O)[C@H](CC(C)C)NC(=O)[C@@H]3CSSC[C@@H](C(=O)NCC(=O)O)NC(=O)[C@H](Cc4ccccc4)NC(=O)CNC(=O)[C@H](CC(N)=O)NC(=O)[C@@H]4CCCN4C(=O)CNC(=O)[C@H](CSSC[C@H](NC(=O)[C@H](CCCNC(=N)N)NC(=O)[C@H](CCC(N)=O)NC(=O)[C@H](CCCNC(=N)N)NC(=O)[C@H](CCCCN)NC(=O)[C@H](C(C)C)NC(=O)[C@H](CO)NC(=O)[C@H](CC(N)=O)NC1=O)C(=O)N[C@@H](CCCCN)C(=O)N[C@@H](CCC(N)=O)C(=O)N[C@@H](CC(=O)O)C(=O)N[C@@H](CO)C(=O)N[C@@H](CC(=O)O)C(=O)N3)NC(=O)[C@H](C(C)C)NC2=O | HEK293, Wnt1-transfected | Wnt signalling | – | – | – | IC50 | > 100 µM |
| CCCCC1(CCCC)CN(c2ccccc2)c2cc(SC)c(OCC(=O)N[C@@H](C(=O)NCC(=O)O)c3ccccc3)cc2S(=O)(=O)C1 | – | item: HDL cholesterol | human, serum | 15 mg once daily, day 2 | – | serum HDL-C | 45.7 mg/dL |
